Assay results of several laboratories.
Numbered parts are unrelated; each lists some results of a single study.
Chain of UniProt P09936 (whole entry, looked up): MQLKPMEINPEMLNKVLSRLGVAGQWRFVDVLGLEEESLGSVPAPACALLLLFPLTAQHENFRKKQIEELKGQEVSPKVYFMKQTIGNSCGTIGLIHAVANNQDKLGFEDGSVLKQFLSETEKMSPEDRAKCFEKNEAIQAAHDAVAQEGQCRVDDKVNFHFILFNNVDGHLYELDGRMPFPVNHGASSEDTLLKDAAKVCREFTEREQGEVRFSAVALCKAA
Chain of UniProt P15374 (whole entry, looked up): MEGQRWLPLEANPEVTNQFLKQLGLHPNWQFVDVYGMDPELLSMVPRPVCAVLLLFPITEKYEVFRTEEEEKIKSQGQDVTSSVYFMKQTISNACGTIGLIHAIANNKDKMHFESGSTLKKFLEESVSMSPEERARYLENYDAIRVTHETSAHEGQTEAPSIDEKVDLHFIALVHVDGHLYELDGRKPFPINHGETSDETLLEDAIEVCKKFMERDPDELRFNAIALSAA
Chain of UniProt P54578 (whole entry, looked up): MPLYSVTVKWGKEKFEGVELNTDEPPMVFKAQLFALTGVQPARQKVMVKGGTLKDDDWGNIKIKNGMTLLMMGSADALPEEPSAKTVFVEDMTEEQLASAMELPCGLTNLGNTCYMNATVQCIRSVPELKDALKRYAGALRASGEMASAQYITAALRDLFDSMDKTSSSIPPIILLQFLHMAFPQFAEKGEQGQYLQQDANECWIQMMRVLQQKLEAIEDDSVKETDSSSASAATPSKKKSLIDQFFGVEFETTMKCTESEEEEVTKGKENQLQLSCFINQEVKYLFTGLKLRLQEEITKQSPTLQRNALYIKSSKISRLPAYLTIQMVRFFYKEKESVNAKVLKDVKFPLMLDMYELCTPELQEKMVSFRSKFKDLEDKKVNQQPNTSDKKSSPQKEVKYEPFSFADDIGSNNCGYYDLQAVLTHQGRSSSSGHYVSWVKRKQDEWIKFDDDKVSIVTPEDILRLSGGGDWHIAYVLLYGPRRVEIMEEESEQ
Chain of UniProt Q8N6M0 (whole entry, looked up): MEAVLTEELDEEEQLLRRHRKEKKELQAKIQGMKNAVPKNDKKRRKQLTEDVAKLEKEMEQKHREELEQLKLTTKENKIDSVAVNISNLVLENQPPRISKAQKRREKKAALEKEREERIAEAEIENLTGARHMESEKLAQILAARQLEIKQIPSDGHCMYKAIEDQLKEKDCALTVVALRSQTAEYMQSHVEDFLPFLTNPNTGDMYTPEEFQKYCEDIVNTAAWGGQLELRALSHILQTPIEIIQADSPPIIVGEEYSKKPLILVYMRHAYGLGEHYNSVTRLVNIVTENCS
Chain of UniProt O75604 (whole entry, looked up): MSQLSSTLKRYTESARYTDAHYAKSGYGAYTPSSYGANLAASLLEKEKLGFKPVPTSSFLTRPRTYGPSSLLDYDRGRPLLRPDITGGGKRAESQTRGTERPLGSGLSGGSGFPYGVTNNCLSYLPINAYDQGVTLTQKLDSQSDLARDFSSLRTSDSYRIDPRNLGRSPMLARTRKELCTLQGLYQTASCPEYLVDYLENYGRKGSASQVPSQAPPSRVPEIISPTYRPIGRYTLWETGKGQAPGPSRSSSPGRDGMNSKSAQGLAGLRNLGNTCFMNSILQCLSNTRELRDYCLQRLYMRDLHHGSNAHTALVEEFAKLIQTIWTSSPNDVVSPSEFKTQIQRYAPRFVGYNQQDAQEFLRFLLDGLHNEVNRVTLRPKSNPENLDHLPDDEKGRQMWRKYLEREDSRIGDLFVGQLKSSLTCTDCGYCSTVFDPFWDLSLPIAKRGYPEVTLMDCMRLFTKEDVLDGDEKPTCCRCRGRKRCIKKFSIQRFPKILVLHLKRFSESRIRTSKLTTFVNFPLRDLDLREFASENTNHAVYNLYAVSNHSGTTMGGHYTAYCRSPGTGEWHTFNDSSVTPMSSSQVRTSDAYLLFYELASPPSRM

Set 1
Target: UBE2D4 UBC core domain (UniProt Q9Y2X8)
Method: yeast two-hybrid
Matrix: yeast
Notes: mostly zero background
Baseline: not given
Reading: higher = stronger interaction
Quantity: lacZ reporter activity
B1: UHRF2 RING domain (UniProt Q96PU4); chain CGGDPEKKCHSCSCRVCGGKHEPNMQLLCDECNVAYHIYCLNPPLDKVPEEEYWYCPSCKTDSSEVVKAGER
B2: TRIM72 RING domain (UniProt Q6ZMU5); chain APGLLHQELSCPLCLQLFDAPVTAECGHSFCRACLGRVAGEPAADGTVLCPCCQAPTRPQALST
B3: CUL9 RING domain (UniProt Q8IWT3); chain AQAVPVRPDHCPVCVSPLGCDDDLPSLCCMHYCCKSCWNEYLTTRIEQNLVLNCTCPIADCPAQPTGAFIR
B4: TRIM69 RING domain (UniProt Q86WT6); chain VIQDITMELHCPLCNDWFRDPLMLSCGHNFCEACIQDFWRLQAKETFCPECKMLCQYNNCTF
Residues (chain): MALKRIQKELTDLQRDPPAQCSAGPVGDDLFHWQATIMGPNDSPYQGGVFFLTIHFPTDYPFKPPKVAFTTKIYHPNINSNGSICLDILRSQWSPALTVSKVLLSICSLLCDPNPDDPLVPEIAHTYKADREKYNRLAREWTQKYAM
Molecule = QHHELTSLFECPVCFDYVLPPILQCQAGHLVCNQCRQKLSCCPTCRGALTPSIRNL (SIAH2 RING domain (UniProt O43255)); value = 0
Molecule = DAIPSLSECQCGICMEILVEPVTLPCNHTLCKPCFQSTVEKASLCCPFCRRRVSSWTRYH (RNF168 RING domain (UniProt Q8IYW5)); value = 0
Molecule = B1 (UHRF2 RING domain); value = 0
Molecule = B2 (TRIM72 RING domain); value = 0
Molecule = VTLSLTLPITCHICLGKVRQPVICINNHVFCSICIDLWLKNNSQCPACRVPITPENPCK (OBI1 RING domain (UniProt Q5W0B1)); value = 0
Molecule = B3 (CUL9 RING domain); value = 0
Molecule = PEELQAMDNVCIICREEMVTGAKRLPCNHIFHTSCLRSWFQRQQTCPTCRMDVLRASLPA (SYVN1 RING domain (UniProt Q86TM6)); value = 0
Molecule = B4 (TRIM69 RING domain); value = 0

Set 2
Target: HLA class I histocompatibility antigen, A alpha chain, allele A*26:03 (Homo sapiens, UniProt P04439)
Read-out: peptide-MHC binding
Form: peptide
Concentration: concentration not given
Quantity: binding
Molecule = KSNRIPFLY; value = inactive
Molecule = KNYPASLHK; value = inactive
Molecule = YKEPNSIIL; value = inactive
Molecule = ESIDDAAGE; value = inactive
Molecule = QLKQRDALF; value = inactive
Molecule = GEGSGARLL; value = inactive
Molecule = VLYCVHQRV; value = inactive
Molecule = LYNTVAVLY; value = inactive

Set 3
Molecule: ubiquitin aldehyde
Read-out: enzyme activity
Quantity: inhibition
ATXN3: Ataxin-3 (ATXN3, Homo sapiens, UniProt P54252)
Chain of UniProt P54252 (whole entry, looked up): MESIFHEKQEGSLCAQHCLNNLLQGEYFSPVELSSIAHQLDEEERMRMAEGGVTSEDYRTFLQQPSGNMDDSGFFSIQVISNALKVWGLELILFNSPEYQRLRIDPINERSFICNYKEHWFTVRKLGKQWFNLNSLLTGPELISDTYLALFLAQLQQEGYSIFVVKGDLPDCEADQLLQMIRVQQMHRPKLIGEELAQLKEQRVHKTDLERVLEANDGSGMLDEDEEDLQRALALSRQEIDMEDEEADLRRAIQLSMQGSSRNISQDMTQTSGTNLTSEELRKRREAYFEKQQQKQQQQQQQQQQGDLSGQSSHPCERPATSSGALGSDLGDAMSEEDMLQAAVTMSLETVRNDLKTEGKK
target = OTUD6B (Homo sapiens, UniProt Q8N6M0); concentration = 0.1 µM; value = 24%
target = UCHL3 (Homo sapiens, UniProt P15374); concentration = 0.01 µM; value = 89%
target = USP10 (Homo sapiens, UniProt Q14694); concentration = 0.01 µM; value = 5%
target = ATXN3; mode = inhibitor; concentration = 10 µM; value = 96%
target = UCHL1 (Homo sapiens, UniProt P09936); concentration = 0.001 µM; value = 7%
target = USP2 (Homo sapiens, UniProt O75604); concentration = 1 µM; value = 96%
target = USP14 (Homo sapiens, UniProt P54578); concentration = 0.01 µM; value = 72%
target = ATXN3; concentration = 0.1 µM; value = 30%

Single results of other studies
SMILES = Cc1nnc2n1-c1sc(CCC(=O)N3CCOCC3)cc1C(c1ccccc1Cl)=NC2; cell line = mouse MPNST tumor cells; assay = high-content nuclear imaging, item: cell number; conditions = 10 µM, 12 h, mean of 2 replicates; scale = baseline: plate mean, higher = more cells; quantity = nuclei count; value = 1.35 z-score
